{"data": "Results collected from several papers", "cell line": "MDA-MB-231", "note": "Numbers after ± are the reported error."}
{"SMILES": "CC(=O)[O][Pd][c]1ccccc1-n1nc(C)cc1C.CC(=O)[O][Pd][c]1ccccc1-n1nc(C)cc1C", "test": "PI flow cytometry", "setting": "25 µM, 24 h", "measurement": "G2 phase cells", "result": "24.9 ± 2.05%"}
{"SMILES": "COc1ccc(CNC[C@@](O)(COCc2ccccc2)[C@@H]2CC[C@@H](C)C[C@H]2OCc2ccccc2)cc1", "test": "cell growth or viability, MTT", "setting": "10 µM, 72 h", "measurement": "inhibition", "result": "96.5%"}
{"SMILES": "COc1ccccc1-c1ccncc1C(=O)Nc1nnc(OCc2ccc(Cl)cc2)s1", "setting": "3 µM, mean of 3 replicates", "how to read": "baseline: untreated", "measurement": "colony survival", "result": "87.2%"}
{"SMILES": "CC(=O)OC[C@H]1O[C@@H](n2cc(CSc3nc4ccccc4n3Cc3cn([C@@H]4O[C@H](COC(C)=O)[C@@H](OC(C)=O)C(OC(C)=O)[C@H]4OC(C)=O)nn3)nn2)[C@H](OC(C)=O)C(OC(C)=O)[C@@H]1OC(C)=O (stereo in doubt)", "test": "MTT", "setting": "125 ppm", "measurement": "cytotoxicity", "result": "92%"}
{"SMILES": "C[C@@H]1CC[C@@H]([C@@](O)(CNCc2ccc(F)cc2)COCc2ccccc2)[C@H](OCc2ccccc2)C1", "test": "cell growth or viability, MTT", "setting": "30 µM, 72 h", "measurement": "inhibition", "result": "98.4%"}
{"SMILES": "CCCNC(=O)[C@H]1O[C@@H]1C(=O)N[C@H](C(=O)N1CCC[C@H]1C(=O)OCC1=C2C(C)=CC(C)=[N+]2[B-](C)(C)n2c(C)cc(C)c21)[C@@H](C)CC", "test": "MTT", "setting": "10 µM, 4 h, irradiated 460-470 nm, 1 min", "how to read": "baseline: DMSO", "measurement": "viability", "result": "~40%"}
{"SMILES": "Oc1ccnc(-c2cc(O)ccn2)c1.[Cl-].[Cl-].[Ru+2].c1ccc(-c2ccnc3c2ccc2c(-c4ccccc4)ccnc23)cc1.c1ccc(-c2ccnc3c2ccc2c(-c4ccccc4)ccnc23)cc1", "test": "CCK-8 viability", "setting": "white light 2 h", "measurement": "EC50", "result": "300 nM"}
{"SMILES": "CCc1c(C)c2ccc(OC(C)C)c(C)c2oc1=O", "test": "cell growth or viability, MTT", "setting": "500 µg/mL", "measurement": "viability", "result": "5.84%"}
{"SMILES": "CC(=O)OCC1=C2C(C)=CC(C)=[N+]2[B-](C)(C)n2c(C)cc(C)c21", "test": "cell viability, MTT", "setting": "concentration not given, 72 h, irradiated 15 min up to 470 nm", "measurement": "EC50", "result": "> 50000 nM"}
{"SMILES": "COc1ccccc1CNC[C@@](O)(COCc1ccccc1)[C@@H]1CC[C@@H](C)C[C@H]1OCc1ccccc1", "test": "cell growth or viability, MTT", "setting": "30 µM, 72 h", "measurement": "inhibition", "result": "98.4%"}
